Measured values pooled from the literature.
Compare with care: the assays were run in different laboratories. ± gives the spread as reported.
Organism: Escherichia coli

Substance	test	system	conditions	MIC
CCN(CC)c1ccc(C=NNC(=O)c2ccccc2)c(O)c1	microbial growth, broth dilution	ATCC25922	–	> 256 µg/mL
CC(C)C1NC(=O)C(C(=O)NC(C(=O)NC2C(=O)N3C2SC(C)(C)C3C(=O)O)c2ccccc2)=C1O (centres unmarked)	broth microdilution	BW25113, Mueller-Hinton broth	added: 2,2'-bipyridyl 30 µg/mL	50 µg/mL
CC[C@H](C)[C@H](NC(=O)[C@H](Cc1c[nH]cn1)NC(=O)[C@H](Cc1c[nH]cn1)NC(=O)[C@H](Cc1ccccc1)NC(=O)[C@@H](N)Cc1ccccc1)C(=O)N[C@@H](Cc1ccccc1)C(=O)N[C@@H](CCCNC(=N)N)C(=O)NCC(=O)N[C@@H](CCCCN)C(=O)N[C@H](C(=O)N[C@@H](Cc1c[nH]cn1)C(=O)N[C@H](C(=O)NCC(=O)N[C@@H](CCCCN)C(=O)N[C@H](C(=O)N[C@H](C(=O)N[C@@H](Cc1c[nH]cn1)C(=O)N[C@@H](CCCNC(=N)N)C(=O)N[C@@H](CC(C)C)C(=O)N[C@H](C(=O)N[C@H](C(=O)NCC(N)=O)[C@@H](C)O)C(C)C)[C@@H](C)CC)[C@@H](C)O)C(C)C)C(C)C	broth microdilution	ATCC 25922	18 h, 37 °C	3.1 µg/mL
CC1(C)SC2C(NC(=O)C(NC(=O)C3=C(O)C4(CC4)NC3=O)c3ccccc3)C(=O)N2C1C(=O)O (centres unmarked)	broth microdilution	BW25113, Mueller-Hinton broth	added: 2,2'-bipyridyl 30 µg/mL	50 µg/mL
CCN(CC)c1ccc(C=Nc2cc(C)ccc2O)c(O)c1	microbial growth, broth dilution	ATCC25922	–	> 256 µg/mL
CCn1cc(C(=O)O)c(=O)c2ccc(C)nc21	microbial growth, broth dilution	ATCC25922	–	3.12 to 6.25 µg/mL
RWQWRWQWR	broth microdilution	peptide, ATCC 25922	24 h, 37 °C	17 µM
CCN(CC)c1ccc(C=Nc2cc(C)c(Br)cn2)c(O)c1	microbial growth, broth dilution	ATCC25922	–	> 256 µg/mL
C[C@H]1COc2c(N3CCN(C)CC3)c(F)cc3c(=O)c(C(=O)O)cn1c23	broth microdilution	ATCC 25922	16 to 20 h, 37 °C	0.024 µg/mL
Oc1ccc(C=Nc2ncn[nH]2)cc1	microbial growth, broth dilution	ATCC25922	–	> 256 µg/mL
CC[C@H](C)[C@H](NC(=O)[C@H](CCCNC(=N)N)NC(=O)CNC(=O)[C@H](CC(C)C)NC(=O)[C@H](Cc1ccccc1)NC(=O)[C@H](CCCCN)NC(=O)[C@H](CO)NC(=O)[C@H](Cc1ccccc1)NC(=O)[C@H](Cc1c[nH]c2ccccc12)NC(=O)[C@H](CCC(N)=O)NC(=O)[C@@H](NC(=O)[C@@H](N)Cc1ccccc1)C(C)C)C(=O)N[C@@H](CC(C)C)C(N)=O	broth microdilution	ATCC 25922, LB medium	16 to 20 h, 37 °C	> 100 µg/mL
O=[N+]([O-])c1ccc(C=Nc2ncn[nH]2)cc1	microbial growth, broth dilution	ATCC25922	–	64 µg/mL
CN(C)c1ncc(O)c2c1C[C@H]1C[C@H]3[C@H](N(C)C)C(O)=C(C(N)=O)C(=O)[C@@]3(O)C(O)=C1C2=O.Cl.Cl	CLSI broth dilution	ATCC 25922	–	0.13 µg/mL
CC1(C)S[C@@H]2[C@H](NC(=O)C(C(=O)O)c3ccccc3)C(=O)N2[C@H]1C(=O)O (some centres unmarked)	broth microdilution	BW25113, Mueller-Hinton broth	–	6.25 µg/mL
CNC(C)C1CCC(N)C(OC2C(N)CC(N)C(OC3OCC(C)(O)C(NC)C3O)C2O)O1 (centres unmarked)	microbial growth, broth dilution	ATCC25922	–	0.5 µg/mL
O=[N+]([O-])c1ccc(C=Nc2nc[nH]n2)c(O)c1	microbial growth, broth dilution	ATCC25922	–	> 256 µg/mL
ent-Arg10-teixobactin	–	ATCC 10798	–	> 32 µg/mL
COc1ccc(C=Nc2ncn[nH]2)cc1	microbial growth, broth dilution	ATCC25922	–	> 256 µg/mL

Substance	test	system	conditions	MIC
CC1(C)S[C@@H]2[C@H](NC(=O)Cc3ccccc3)C(=O)N2[C@H]1C(=O)O	broth microdilution	ATCC 25922	16 to 20 h, 37 °C	50 µg/mL
CC1(C)SC2C(NC(=O)C(NC(=O)C3=C(O)C(Cc4ccc(O)cc4)NC3=O)c3ccccc3)C(=O)N2C1C(=O)O (centres unmarked)	broth microdilution	BW25113, Mueller-Hinton broth	added: CCCP 50 µg/mL	12.5 µg/mL
CCc1cc(=O)c2c(OCC(O)CNC(C)C)c3ccoc3c(OC)c2o1 (centres unmarked)	microbial growth, broth dilution	ATCC25	19 h	> 256 µg/mL
CC[C@H](C)[C@H](NC(=O)[C@H](CCCNC(=N)N)NC(=O)[C@H](CCCNC(=N)N)NC(=O)[C@@H]1CCCN1C(=O)[C@@H]1CCCN1C(=O)[C@H](CCCNC(=N)N)NC(=O)[C@@H]1CCCN1C(=O)[C@H](CCCNC(=N)N)NC(=O)[C@@H]1CCCN1C(=O)[C@H](CC(C)C)NC(=O)[C@H](Cc1ccc(O)cc1)NC(=O)[C@@H]1CCCN1C(=O)[C@@H]1CCCN1C(=O)[C@H](CCCCN)NC(=O)[C@H](CC(=O)O)NC(=O)[C@@H](N)C(C)C)C(=O)N[C@@H](Cc1ccc(O)cc1)C(=O)N[C@@H](CC(N)=O)C(=O)N[C@@H](CCCNC(=N)N)C(N)=O	alamarBlue	SQ110 LptD defective	overnight, 37 °C	1 µM
CC1(C)SC2C(NC(=O)C(NC(=O)C3=C(O)C(Cc4ccccc4)NC3=O)c3ccccc3)C(=O)N2C1C(=O)O (centres unmarked)	broth microdilution	BW25113, Mueller-Hinton broth	18 h, without clavulanic acid	100 µg/mL
CCc1cc(=O)c2c(O)c3ccoc3c(OC)c2o1	microbial growth, broth dilution	ATCC25	19 h	> 256 µg/mL
Clc1ccc(C=Nc2ncn[nH]2)cc1	microbial growth, broth dilution	ATCC25922	–	> 256 µg/mL
CCOC(=O)c1c(N)csc1-c1cn(-c2ccccc2)nc1-c1ccc(C)cc1	broth microdilution	clinical urinary isolate	compound gamma-irradiated 15 kGy	0.122 ± 0.5 µg/mL
CCc1cc(=O)c2c(OCC(O)CN(CC)CC)c3ccoc3c(OC)c2o1 (centres unmarked)	microbial growth, broth dilution	ATCC25	19 h	> 256 µg/mL
CC[C@@H](C)[C@@H](NC(=O)[C@@H](Cc1c[nH]c2ccccc12)NC(=O)[C@H](N)CCCNC(=N)N)C(=O)N[C@H](CCCNC(=N)N)C(=O)N[C@H](Cc1c[nH]c2ccccc12)C(=O)N[C@@H](C(=O)N[C@H](Cc1c[nH]c2ccccc12)C(=O)N[C@H](CCCNC(=N)N)C(=O)N[C@H](CCCCN)C(=O)N[C@H](CCCCN)C(=O)N[C@H](CC(C)C)C(=O)N[C@H](CCCNC(=N)N)C(N)=O)C(C)C	–	ATCC 25922	1 h, 37 °C, dividing cells in LB	12.5 µg/mL
Oc1ccc(O)c(C=Nc2ncn[nH]2)c1	microbial growth, broth dilution	ATCC25922	–	32 µg/mL
CCc1cc(=O)c2c(OCC(O)CN3CCC(C)CC3)c3ccoc3c(OC)c2o1 (centres unmarked)	microbial growth, broth dilution	ATCC25	19 h	> 256 µg/mL
CCN(CC)c1ccc(C=NNC(=O)c2ccncc2)c(O)c1	microbial growth, broth dilution	ATCC25922	–	> 256 µg/mL
CCCCCCCCC[n+]1c2cc(N(C)C)ccc2cc2ccc(N(C)C)cc21.[Br-]	microbial growth, broth dilution	ATCC25922	–	3.12 µg/mL
RXRRXRRXRRXR (peptide-PNA conjugate)	broth microdilution	peptide, UPEC 536, Mueller-Hinton broth	24 h, 37 °C	1.25 µM
CCc1cc(=O)c2c(OCC(O)CN3CCOCC3)c3ccoc3c(OC)c2o1 (centres unmarked)	microbial growth, broth dilution	ATCC25	19 h	> 256 µg/mL
CC1(C)S[C@@H]2[C@H](NC(=O)[C@H](N)c3ccccc3)C(=O)N2[C@H]1C(=O)O	microbial growth, broth dilution	ATCC25922	–	6.25 to 12.5 µg/mL

Excerpt of the above:
Substance	test	system	conditions	MIC
CNC(C)C1CCC(N)C(OC2C(N)CC(N)C(OC3OCC(C)(O)C(NC)C3O)C2O)O1 (centres unmarked)	microbial growth, broth dilution	ATCC25922	–	0.5 µg/mL
COc1ccc(C=Nc2ncn[nH]2)cc1	microbial growth, broth dilution	ATCC25922	–	> 256 µg/mL
CCn1cc(C(=O)O)c(=O)c2ccc(C)nc21	microbial growth, broth dilution	ATCC25922	–	3.12 to 6.25 µg/mL
RWQWRWQWR	broth microdilution	peptide, ATCC 25922	24 h, 37 °C	17 µM
CCOC(=O)c1c(N)csc1-c1cn(-c2ccccc2)nc1-c1ccc(C)cc1	broth microdilution	clinical urinary isolate	compound gamma-irradiated 15 kGy	0.122 ± 0.5 µg/mL
